Published values collected from several papers.
Numbered parts are unrelated; each lists some results of a single study. Changes are numbered by the printed parent chain.

Block 1
Target: ABI1, truncated, D143A, DHFR fusion (Arabidopsis thaliana)
Method: DHFR PCA, deep sequencing
Matrix: yeast
Notes: methotrexate growth selection, single substitutions
Added: (+)-ABA 17 µM
Reference: wild-type fitted maximum
Reading: higher = stronger binding
Endpoint: relative binding score
Parent: PYL1, truncated, DHFR fusion (Arabidopsis thaliana); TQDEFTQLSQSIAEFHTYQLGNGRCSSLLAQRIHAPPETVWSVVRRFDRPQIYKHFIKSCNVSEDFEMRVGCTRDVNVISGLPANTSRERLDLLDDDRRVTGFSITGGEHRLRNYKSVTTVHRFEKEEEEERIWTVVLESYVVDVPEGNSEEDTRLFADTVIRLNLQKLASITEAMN
C72P: 1.1%
K54S: -9.09%
S140T: -4.97%
F157T: -15.9%
F157Q: -9.96%

Block 2
Target: RING finger protein unkempt homolog, zinc fingers 1-6, GST-SBP tag (UNK, Homo sapiens, UniProt Q9C0B0, residues 30-357)
Method: RNA Bind-n-Seq
Form: RNA
Matrix: in vitro
Tested at: not given
Notes: RNA with constant flanks, human-mouse chimeric sites, ends assumed
Reference: input RNA pool
Reading: higher = stronger binding
Endpoint: bound/input enrichment
Shared flanks, not repeated: GGGAGUUCUACAGUCCGACGAUC … CAACAGAGGAUUGAGCAUCA
Residues (chain): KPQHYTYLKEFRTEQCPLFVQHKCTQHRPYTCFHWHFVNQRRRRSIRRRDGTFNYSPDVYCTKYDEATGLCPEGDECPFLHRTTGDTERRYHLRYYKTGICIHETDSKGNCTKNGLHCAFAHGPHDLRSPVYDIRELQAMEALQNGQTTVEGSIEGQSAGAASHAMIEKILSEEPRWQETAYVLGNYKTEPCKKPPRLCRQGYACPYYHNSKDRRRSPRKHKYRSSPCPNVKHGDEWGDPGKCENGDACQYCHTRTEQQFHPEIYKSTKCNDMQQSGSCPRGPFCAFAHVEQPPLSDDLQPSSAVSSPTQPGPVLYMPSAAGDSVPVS
AAAAUAGACUAUGGUGAGUACAUGGAUAAAAACAAUGUGAGGCGGCAAGCAACAACAAUCAUAGCUGAUAACAUUAUAUUUCUGAGUGACCAGACAAAAGAAAAGGCAUAGAACGGAUGA: 3.1 ratio
UCAAGGGGGCACUGCAGAGCCAUGCCUUUCCUUGACAUACAGAAAAAGCUGGGCAUCAGCCUGGACCGGCACUUUAUGUUCCUAAGCGGUGAACAGCCCUAUAAGAACGCCGCUCGGUGC: 0.085 ratio
GAGUCGAGCAAACUUGAAACUACAGAAUAUCUUGCAGCCUCAGUGUUCACUUGCUUGGCGAUAGCAUUGGGGUUUUAUAGGUUCUGGAAGGAGAACUGACGAUGAUGCUGCCGCUGCUGC: 0.155 ratio
GCGAACAGGACUACAGAAAUGCUGGUAAUUUCAGUCACUUGCUGAUGACUUCUGAUGUCCCAGCAAAUGUUGGCAUUGUUGACUGCUGAGAAGAUACACUCGCAAGGCCACGUCUAAGGU: 0.0981 ratio
UAAGUCCUGUGCCAGCACUUCGCUCAUAAAGUUUUAAAUUCUGGACCAAUAGUGUUUGUUUCCUGAUUAUUGUAUCCAAUACUUUGCGUACUAUGUGACUCAUGCUUACUGAUAAUAAAA: 0.376 ratio
UGUAGUUGAUCCCCUGCUCAUUUUUCUCUUUUCUUUCUUUCCUUUAGGAAAAGCCUAAAGAUUAGGUUGUAAGAAAAGAAAAUAGAAUGUUUCGAAGACCUGUGUUACAGGUAUUUCGUC: 0.105 ratio
GUUCGGCUCUGGGAUCAUGCCACAAUGACAGAAGUGAAAUCUCUGAAUUUUAAUAUGUCUGUUAGUAGCAUGGAGUAUAUUCCUGAAGGAGAGAUUUUGGUUAUAACUUAUGGACGAUCU: 0.56 ratio
UACUACUAUGAUGGUGAUAUUGGCAAUUAUUAUUAUGGCCAGGGUCAUCCCAUGAAGCCUCAUAGAAUCCGCAUGACCCAUAACUUGCUGCUAAAUUAUGGUUUAUACCGAAAAAUGGAA: 0.182 ratio
UGGCGCCUGCGCUCCCCACUCGUGUUUUUAAGUGUAUUUUUAUAAGAUACAUGUAUUUACAAUUGAGCUUUUGUUACUAUAAUACUGAAACAUCUCUGAGAUUAUGAAAAAUGUUUCAAU: 0.136 ratio
UAAAUUAGGGCUGCCGUUUUCUGUUUCUCCCUGGGCUGCGGAAAGCCAGAAGAUUUUAUCUAGCUUAAACCAGGCUGCUGGUGUUCCCUCUUUUUUUCCCUCUCUCUGUUUUUGGCUGCA: 1.14 ratio

Block 3
Target: CCNA1, cyclin fold, Cln2 fusion (human)
Method: yeast growth competition, sequencing
Matrix: yeast
Notes: weak parent motif
Reference: not given
Reading: higher = stronger binding
Endpoint: normalised enrichment score
Parent: WEE1 docking peptide (human); HKTFRKLRLFDTP
T3S: -0.0286
H1G: 0.369
L7Q: 0.627
T3R: 0.237
T3D: 0.173
T3L: 0.0802

Further values, each from its own experiment
PhoQ, residues 284 288 289 292 302 303 SSYNSA
fold induction (PhoP, residues 12 14 15 18 19 LYFRQ (Escherichia coli, UniProt P23836); Sort-seq, item: YFP reporter; E. coli; PhoQ-PhoP variant library, added: 10 µM Mg2+; reference: high Mg2+ state, higher = stronger signaling): 15

Some of these lines once more (block 2):
UGGCGCCUGCGCUCCCCACUCGUGUUUUUAAGUGUAUUUUUAUAAGAUACAUGUAUUUACAAUUGAGCUUUUGUUACUAUAAUACUGAAACAUCUCUGAGAUUAUGAAAAAUGUUUCAAU: 0.136 ratio
GUUCGGCUCUGGGAUCAUGCCACAAUGACAGAAGUGAAAUCUCUGAAUUUUAAUAUGUCUGUUAGUAGCAUGGAGUAUAUUCCUGAAGGAGAGAUUUUGGUUAUAACUUAUGGACGAUCU: 0.56 ratio
UACUACUAUGAUGGUGAUAUUGGCAAUUAUUAUUAUGGCCAGGGUCAUCCCAUGAAGCCUCAUAGAAUCCGCAUGACCCAUAACUUGCUGCUAAAUUAUGGUUUAUACCGAAAAAUGGAA: 0.182 ratio
